Experimental data of several laboratories.
Parts stem from different laboratories: compare values within a part only.

Series 1
Target: Interferon regulatory factor 3, full length, phosphomimetic (IRF3, Homo sapiens, UniProt Q14653, residues 1-427, S386D/S396D/S398D/S402D/T404D/S405D)
Chain of UniProt Q14653 (whole entry, unmodified, looked up): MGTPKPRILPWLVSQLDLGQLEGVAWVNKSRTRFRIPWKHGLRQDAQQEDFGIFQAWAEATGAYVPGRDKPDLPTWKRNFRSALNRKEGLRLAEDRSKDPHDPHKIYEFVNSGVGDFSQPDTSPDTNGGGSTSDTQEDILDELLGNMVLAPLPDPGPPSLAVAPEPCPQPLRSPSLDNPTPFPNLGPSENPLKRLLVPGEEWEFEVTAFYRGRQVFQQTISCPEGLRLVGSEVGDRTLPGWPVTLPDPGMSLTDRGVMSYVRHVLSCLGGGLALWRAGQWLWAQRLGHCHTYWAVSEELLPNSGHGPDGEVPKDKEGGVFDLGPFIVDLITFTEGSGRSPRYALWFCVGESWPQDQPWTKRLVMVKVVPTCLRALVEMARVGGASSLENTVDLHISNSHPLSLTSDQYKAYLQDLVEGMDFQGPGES
Method: protein-binding microarray
Molecule type: double-stranded DNA, one strand shown
Sample: in vitro
Concentration: 2540 nM top
Notes: 60-bp whole probe
Together with: salmon DNA 0.4 mg/ml
Baseline: random background probes
Direction: higher = stronger binding
All sequences stand within: GCCTAGCAC … GTCTTGATTCGCTTGACGCTGCTG
Strand | fitted relative affinity
TCATGTTTGGTTCTTATACTGTGCTAG | 0.784 z-score
GACGGTCTCTTTATCCTGACGTGCTAG | 1.03 z-score
GACGGACTGGGTCTCGGTACGTGCTAG | -0.556 z-score
AAATGATTGGTTGAACATGAGTGCTAG | -0.249 z-score
TTAGGACTGGACTATCGGTGAGTGCTA | -0.545 z-score

Series 2
Target: Centromere-binding protein 1, full length, His-tagged (CBF1, Saccharomyces cerevisiae, UniProt P17106, residues 1-351)
Chain of UniProt P17106 (whole entry, looked up): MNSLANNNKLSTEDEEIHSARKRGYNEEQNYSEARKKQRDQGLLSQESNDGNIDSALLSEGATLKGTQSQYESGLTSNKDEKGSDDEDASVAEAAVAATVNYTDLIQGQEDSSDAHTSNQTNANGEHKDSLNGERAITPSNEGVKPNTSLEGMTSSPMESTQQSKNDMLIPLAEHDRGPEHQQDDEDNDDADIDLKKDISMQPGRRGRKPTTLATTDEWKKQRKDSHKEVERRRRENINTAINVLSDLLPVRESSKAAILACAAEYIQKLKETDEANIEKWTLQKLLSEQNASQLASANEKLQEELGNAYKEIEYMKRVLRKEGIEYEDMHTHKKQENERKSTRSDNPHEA
Method: competition protein-binding microarray
Molecule type: double-stranded DNA, one strand shown
Sample: in vitro
Concentration: 2 µM
Notes: whole 60-bp probe, lowest competitor level
Together with: Pho4 competitor, 0.05 µM
Direction: higher = stronger binding
All sequences stand within: … GTCTTGATTCGCTTGACGCTGCTG
Strand | fluorescence intensity [a.u.]
CCGTAGGGACTTTTGCACGTTATTATGGGAATATCA | 139
CATACCCAACCTTGCCACGTGGGTGAAGATATTTGT | 1070
TGCATATTCGTCAGTGACGTGCAAAATTCTTTTGAA | 93.2
CAAACATAAAAGTCGTTCGTGATGGTGAGTTACTTA | 84.7
TGGACAGCGCTTCCCAGCGTGCTTTACATAATGCTT | 77.8
GGATTACTGTAATTGCTCGTGTTGGATTGAGCGAAA | 96.9

Series 3
Target: Sal-like protein 4, full length isoform A (SALL4, Homo sapiens, UniProt Q9UJQ4, residues 1-1053)
Chain of UniProt Q9UJQ4 (whole entry, looked up): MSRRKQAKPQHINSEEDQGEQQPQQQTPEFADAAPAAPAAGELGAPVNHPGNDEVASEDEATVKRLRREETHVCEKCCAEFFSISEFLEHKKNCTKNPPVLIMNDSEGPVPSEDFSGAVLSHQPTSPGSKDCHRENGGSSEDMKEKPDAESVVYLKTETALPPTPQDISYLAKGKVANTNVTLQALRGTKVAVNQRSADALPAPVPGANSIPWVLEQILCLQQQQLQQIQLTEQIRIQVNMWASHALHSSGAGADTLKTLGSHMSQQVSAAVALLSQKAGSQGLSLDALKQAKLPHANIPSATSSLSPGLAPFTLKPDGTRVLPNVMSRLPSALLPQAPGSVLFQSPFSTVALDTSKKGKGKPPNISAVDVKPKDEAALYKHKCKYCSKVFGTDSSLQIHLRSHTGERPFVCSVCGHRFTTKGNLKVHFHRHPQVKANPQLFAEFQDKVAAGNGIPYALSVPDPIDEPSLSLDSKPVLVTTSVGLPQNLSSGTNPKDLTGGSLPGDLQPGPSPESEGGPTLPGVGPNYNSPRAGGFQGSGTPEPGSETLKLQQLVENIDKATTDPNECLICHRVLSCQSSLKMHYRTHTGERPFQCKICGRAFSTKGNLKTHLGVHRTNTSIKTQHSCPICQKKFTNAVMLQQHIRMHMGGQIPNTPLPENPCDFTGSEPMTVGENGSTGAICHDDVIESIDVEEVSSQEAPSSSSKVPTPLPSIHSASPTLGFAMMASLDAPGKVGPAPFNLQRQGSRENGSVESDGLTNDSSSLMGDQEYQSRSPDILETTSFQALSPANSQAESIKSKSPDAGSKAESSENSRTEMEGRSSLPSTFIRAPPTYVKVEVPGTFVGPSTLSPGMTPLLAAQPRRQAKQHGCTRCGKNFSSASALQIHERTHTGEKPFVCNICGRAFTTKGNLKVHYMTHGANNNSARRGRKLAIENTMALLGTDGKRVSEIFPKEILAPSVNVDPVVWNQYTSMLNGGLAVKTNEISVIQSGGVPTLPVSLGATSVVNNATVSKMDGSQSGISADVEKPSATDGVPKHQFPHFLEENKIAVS
Method: universal PBM
Molecule type: double-stranded DNA, one strand shown
Sample: in vitro
Concentration: 600 nM
Notes: 8-mer, flanks averaged, mean of replicates
Direction: higher = stronger binding
Strand | E-score
ACCCCGAA | -0.101
CCCTCACC | -0.314
ACTCTATG | -0.074
ACCTGTGA | -0.017
AGATAACC | 0.0624

Further values, each from its own experiment
Molecule | target | assay | system | setting | scale | quantity | value
PhoQ, residues 284 288 289 292 302 303 ALAMYF | PhoP, residues 12 14 15 18 19 HHYTI (Escherichia coli, UniProt P23836) | Sort-seq, refers to: YFP reporter | E. coli | PhoQ-PhoP variant library, together with: 10 µM Mg2+ | baseline: high Mg2+ state, higher = stronger signaling | fold induction | 2.34

Excerpt of the above (series 1):
Strand | fitted relative affinity
AAATGATTGGTTGAACATGAGTGCTAG | -0.249 z-score
GACGGTCTCTTTATCCTGACGTGCTAG | 1.03 z-score
TTAGGACTGGACTATCGGTGAGTGCTA | -0.545 z-score
